{"data": "Measured values from different studies", "target": "Acetylcholinesterase (ACHE, Homo sapiens, UniProt P22303)", "note": "Each line is one published result; not all experiments were run side by side. ± gives the spread as reported.", "chain of UniProt P22303 (whole entry, looked up)": "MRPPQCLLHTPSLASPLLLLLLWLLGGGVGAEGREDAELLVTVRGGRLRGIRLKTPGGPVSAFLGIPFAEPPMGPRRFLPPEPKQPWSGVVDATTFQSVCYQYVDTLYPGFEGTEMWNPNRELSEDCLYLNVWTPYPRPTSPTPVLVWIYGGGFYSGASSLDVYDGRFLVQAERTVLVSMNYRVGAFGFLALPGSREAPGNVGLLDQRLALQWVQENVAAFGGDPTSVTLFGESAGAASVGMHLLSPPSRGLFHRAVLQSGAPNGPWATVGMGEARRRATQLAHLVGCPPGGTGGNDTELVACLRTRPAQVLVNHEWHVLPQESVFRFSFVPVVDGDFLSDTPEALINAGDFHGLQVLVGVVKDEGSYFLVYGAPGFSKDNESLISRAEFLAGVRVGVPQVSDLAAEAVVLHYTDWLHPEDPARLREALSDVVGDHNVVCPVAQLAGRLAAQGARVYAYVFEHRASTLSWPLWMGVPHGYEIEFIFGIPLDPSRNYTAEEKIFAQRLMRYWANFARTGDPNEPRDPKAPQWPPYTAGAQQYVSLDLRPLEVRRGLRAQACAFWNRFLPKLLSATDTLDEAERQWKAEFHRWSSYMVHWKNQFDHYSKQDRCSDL"}
{"SMILES": "COc1cc2c(cc1OC)C(=O)/C(=C\\c1ccc([N+](C)(C)C)cc1)C2", "assay": "non-competitive inhibitor, secondary plot", "measurement": "Ki'", "value": "15 µM"}
{"SMILES": "S=C(NCc1ccccn1)NCc1ccccn1", "assay": "enzyme activity, inhibitor", "setting": "125 µg/mL", "measurement": "inhibition", "value": "52.5%"}
{"SMILES": "C=CCc1ccc(OC(=O)CSc2nnc(Cn3cnc4c3c(=O)n(C)c(=O)n4C)o2)c(OC)c1", "assay": "enzyme activity, inhibitor, Ellman", "setting": "25 µM", "measurement": "inhibition", "value": "41.3%"}
{"SMILES": "O=c1c(O)c(-c2cc(O)ccc2O)oc2cc(O)cc(O)c12", "assay": "enzyme activity, inhibitor", "setting": "1000 µg/mL", "measurement": "inhibition", "value": "82.7 ± 2.2%"}
{"SMILES": "CCS(=O)(=O)N1CCN(CC(=O)Nc2ccc(/C=C/C(=O)c3ccc(OC)c(OC)c3)cc2)CC1", "assay": "enzyme activity", "setting": "100 µM", "measurement": "inhibition", "value": "85.8 ± 1.4%"}
{"SMILES": "O=C(O)CCCC(=O)O", "assay": "enzyme activity, inhibitor", "setting": "500 µg/mL", "measurement": "inhibition", "value": "70.2 ± 1.51%"}
{"SMILES": "C=CCc1ccc(OC(=O)Cn2cnc3c2c(=O)n(C)c(=O)n3C)c(OC)c1", "assay": "enzyme activity, inhibitor, Ellman", "setting": "25 µM", "measurement": "inhibition", "value": "61.4%"}
{"SMILES": "O=C1C=C(OCCCCCCCCn2cc(CNc3ccc4nccnc4c3)nn2)C(=O)c2ccccc21", "assay": "inhibitor, Lineweaver-Burk", "setting": "unit not given", "scale": "above one favours free enzyme", "measurement": "alpha constant", "value": 4.18}
{"SMILES": "CCN(CC)CCCCCOc1ccc2occc(=O)c2c1", "assay": "uncompetitive inhibitor, Ellman", "test system": "human erythrocyte ghosts", "measurement": "αKi", "value": "5.23 ± 1.46 µM"}
{"SMILES": "O=C(O)/C=C/c1ccc(O)cc1", "assay": "inhibitor", "setting": "1000 µg/mL", "measurement": "inhibition", "value": "83.4 ± 0.5%"}
{"SMILES": "O=c1ccoc2ccc(OCCCCCN3CCCCC3)cc12", "assay": "uncompetitive inhibitor, Ellman", "test system": "human erythrocyte ghosts", "measurement": "αKi", "value": "3.8 ± 0.61 µM"}
{"SMILES": "COC(=O)c1ccc(-n2nc(-c3ccccc3O)nc2-c2ccccc2O)cc1", "assay": "modified Ellman's method", "setting": "concentration not given", "measurement": "enzyme inhibition", "value": "inhibited"}
{"SMILES": "COc1cc2c(cc1OC)C(=O)/C(=C\\c1ccc(N3CCCC3)cc1)C2", "assay": "non-competitive inhibitor, secondary plot", "measurement": "Ki'", "value": "170 µM"}
{"SMILES": "NNC(=O)c1ccc(-n2nc(-c3ccccc3O)nc2-c2ccccc2O)cc1", "assay": "modified Ellman's method", "setting": "concentration not given", "measurement": "enzyme inhibition", "value": "inhibited"}
{"SMILES": "COc1cc2c(cc1OC)C(=O)/C(=C\\c1ccc(-n3cccn3)cc1)C2", "assay": "non-competitive inhibitor, secondary plot", "measurement": "Ki'", "value": "51 µM"}
{"SMILES": "O=C(O)/C=C/c1cc(O)cc(O)c1", "assay": "enzyme activity, inhibitor", "setting": "500 µg/mL", "measurement": "inhibition", "value": "74.3 ± 1.4%"}
{"note": "Repeated from above:"}
{"SMILES": "COc1cc2c(cc1OC)C(=O)/C(=C\\c1ccc(N3CCCC3)cc1)C2", "assay": "non-competitive inhibitor, secondary plot", "measurement": "Ki'", "value": "170 µM"}
